Published values collected from several papers.
A part holds a random share of what one study measured. pIC50: −log10 of the molar value.
UniProt P27361, sequence (whole entry, looked up): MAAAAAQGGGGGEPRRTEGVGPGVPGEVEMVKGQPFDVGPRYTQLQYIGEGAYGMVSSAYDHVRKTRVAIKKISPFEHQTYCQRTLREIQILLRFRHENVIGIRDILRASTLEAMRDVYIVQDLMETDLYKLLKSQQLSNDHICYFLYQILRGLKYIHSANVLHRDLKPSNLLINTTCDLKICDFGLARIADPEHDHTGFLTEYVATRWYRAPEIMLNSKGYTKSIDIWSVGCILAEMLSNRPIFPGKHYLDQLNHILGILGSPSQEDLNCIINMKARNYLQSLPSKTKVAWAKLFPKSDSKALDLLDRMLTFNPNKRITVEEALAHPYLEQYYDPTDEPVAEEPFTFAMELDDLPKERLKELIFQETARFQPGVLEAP
UniProt P42336, sequence (whole entry, unmodified, looked up): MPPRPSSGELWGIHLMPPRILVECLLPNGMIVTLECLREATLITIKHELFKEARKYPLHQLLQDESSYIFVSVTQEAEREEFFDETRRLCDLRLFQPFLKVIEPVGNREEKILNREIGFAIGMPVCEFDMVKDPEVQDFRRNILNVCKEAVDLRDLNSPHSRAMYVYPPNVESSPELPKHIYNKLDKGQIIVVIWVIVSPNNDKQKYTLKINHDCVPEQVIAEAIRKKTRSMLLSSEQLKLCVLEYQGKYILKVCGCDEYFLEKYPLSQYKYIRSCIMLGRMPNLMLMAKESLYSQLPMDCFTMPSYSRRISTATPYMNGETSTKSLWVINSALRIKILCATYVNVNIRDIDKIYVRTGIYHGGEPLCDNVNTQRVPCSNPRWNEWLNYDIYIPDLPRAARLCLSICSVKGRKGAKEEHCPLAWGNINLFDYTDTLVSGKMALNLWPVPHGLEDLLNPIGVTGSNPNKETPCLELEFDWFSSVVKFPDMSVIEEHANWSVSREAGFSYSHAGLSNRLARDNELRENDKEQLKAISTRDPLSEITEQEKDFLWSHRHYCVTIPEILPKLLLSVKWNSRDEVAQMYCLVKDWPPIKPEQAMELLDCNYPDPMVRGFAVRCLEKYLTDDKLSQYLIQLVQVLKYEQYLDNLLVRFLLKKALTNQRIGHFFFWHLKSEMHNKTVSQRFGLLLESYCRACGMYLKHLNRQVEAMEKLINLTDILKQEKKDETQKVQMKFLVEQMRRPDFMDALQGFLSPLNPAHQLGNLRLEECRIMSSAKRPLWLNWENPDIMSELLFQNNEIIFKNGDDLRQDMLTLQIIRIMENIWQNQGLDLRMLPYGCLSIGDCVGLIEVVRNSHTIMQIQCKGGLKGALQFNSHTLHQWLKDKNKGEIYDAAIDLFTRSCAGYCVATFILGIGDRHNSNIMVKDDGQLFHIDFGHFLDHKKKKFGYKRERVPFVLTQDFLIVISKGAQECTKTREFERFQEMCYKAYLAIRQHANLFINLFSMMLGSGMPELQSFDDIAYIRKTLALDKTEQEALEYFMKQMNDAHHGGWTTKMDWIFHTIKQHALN
UniProt Q02779, sequence (whole entry, looked up): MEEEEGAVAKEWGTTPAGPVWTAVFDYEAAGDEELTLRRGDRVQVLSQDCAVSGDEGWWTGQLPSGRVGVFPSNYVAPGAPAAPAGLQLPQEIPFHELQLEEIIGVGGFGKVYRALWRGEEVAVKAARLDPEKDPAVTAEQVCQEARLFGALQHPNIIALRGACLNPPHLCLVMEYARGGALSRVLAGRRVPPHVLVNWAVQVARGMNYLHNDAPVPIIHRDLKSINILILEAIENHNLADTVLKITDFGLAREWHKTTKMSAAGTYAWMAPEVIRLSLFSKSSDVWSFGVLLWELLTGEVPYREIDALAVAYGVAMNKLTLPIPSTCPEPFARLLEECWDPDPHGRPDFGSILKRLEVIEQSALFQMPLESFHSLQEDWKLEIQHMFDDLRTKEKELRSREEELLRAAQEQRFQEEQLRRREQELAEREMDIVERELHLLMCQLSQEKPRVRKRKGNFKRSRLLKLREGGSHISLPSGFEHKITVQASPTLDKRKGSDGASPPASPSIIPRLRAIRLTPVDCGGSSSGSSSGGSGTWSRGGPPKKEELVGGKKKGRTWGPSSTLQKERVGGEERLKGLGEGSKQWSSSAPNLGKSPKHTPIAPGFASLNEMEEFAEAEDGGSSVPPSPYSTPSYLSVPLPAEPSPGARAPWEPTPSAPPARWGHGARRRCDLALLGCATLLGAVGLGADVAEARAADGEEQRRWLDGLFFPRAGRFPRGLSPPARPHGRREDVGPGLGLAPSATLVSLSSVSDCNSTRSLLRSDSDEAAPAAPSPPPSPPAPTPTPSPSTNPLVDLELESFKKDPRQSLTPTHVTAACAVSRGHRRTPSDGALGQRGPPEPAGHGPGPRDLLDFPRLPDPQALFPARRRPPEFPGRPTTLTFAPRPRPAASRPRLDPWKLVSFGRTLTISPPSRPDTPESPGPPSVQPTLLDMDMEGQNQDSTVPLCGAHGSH
UniProt P06241, sequence (whole entry, looked up): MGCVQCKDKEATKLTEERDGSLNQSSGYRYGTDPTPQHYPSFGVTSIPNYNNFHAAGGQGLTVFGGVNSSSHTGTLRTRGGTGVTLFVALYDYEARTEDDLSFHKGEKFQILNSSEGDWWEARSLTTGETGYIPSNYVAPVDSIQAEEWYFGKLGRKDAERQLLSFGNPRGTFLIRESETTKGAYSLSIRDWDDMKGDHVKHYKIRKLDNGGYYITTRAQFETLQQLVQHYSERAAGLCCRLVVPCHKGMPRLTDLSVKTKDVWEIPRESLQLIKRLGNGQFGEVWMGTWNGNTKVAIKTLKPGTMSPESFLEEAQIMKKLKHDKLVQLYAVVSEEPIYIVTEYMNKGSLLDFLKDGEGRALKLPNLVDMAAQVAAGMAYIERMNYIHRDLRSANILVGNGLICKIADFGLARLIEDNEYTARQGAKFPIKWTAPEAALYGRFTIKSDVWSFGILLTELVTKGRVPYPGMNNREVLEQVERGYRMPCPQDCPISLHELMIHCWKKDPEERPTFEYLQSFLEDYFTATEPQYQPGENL
UniProt Q00536, sequence (whole entry, looked up): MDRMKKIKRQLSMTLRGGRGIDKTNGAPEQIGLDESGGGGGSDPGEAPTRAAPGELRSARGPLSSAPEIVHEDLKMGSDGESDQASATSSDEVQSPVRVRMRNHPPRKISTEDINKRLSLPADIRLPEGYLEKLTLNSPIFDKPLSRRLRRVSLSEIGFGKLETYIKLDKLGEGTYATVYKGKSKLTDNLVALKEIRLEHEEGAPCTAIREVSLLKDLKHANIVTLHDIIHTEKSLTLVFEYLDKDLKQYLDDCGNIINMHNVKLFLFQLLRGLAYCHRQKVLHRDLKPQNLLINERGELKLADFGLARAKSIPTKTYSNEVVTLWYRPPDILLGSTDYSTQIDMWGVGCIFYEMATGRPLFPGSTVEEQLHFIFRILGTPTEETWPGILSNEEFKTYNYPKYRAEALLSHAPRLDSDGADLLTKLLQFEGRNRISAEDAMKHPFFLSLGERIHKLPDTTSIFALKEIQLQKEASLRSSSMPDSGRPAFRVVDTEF
UniProt P54764, sequence (whole entry, looked up): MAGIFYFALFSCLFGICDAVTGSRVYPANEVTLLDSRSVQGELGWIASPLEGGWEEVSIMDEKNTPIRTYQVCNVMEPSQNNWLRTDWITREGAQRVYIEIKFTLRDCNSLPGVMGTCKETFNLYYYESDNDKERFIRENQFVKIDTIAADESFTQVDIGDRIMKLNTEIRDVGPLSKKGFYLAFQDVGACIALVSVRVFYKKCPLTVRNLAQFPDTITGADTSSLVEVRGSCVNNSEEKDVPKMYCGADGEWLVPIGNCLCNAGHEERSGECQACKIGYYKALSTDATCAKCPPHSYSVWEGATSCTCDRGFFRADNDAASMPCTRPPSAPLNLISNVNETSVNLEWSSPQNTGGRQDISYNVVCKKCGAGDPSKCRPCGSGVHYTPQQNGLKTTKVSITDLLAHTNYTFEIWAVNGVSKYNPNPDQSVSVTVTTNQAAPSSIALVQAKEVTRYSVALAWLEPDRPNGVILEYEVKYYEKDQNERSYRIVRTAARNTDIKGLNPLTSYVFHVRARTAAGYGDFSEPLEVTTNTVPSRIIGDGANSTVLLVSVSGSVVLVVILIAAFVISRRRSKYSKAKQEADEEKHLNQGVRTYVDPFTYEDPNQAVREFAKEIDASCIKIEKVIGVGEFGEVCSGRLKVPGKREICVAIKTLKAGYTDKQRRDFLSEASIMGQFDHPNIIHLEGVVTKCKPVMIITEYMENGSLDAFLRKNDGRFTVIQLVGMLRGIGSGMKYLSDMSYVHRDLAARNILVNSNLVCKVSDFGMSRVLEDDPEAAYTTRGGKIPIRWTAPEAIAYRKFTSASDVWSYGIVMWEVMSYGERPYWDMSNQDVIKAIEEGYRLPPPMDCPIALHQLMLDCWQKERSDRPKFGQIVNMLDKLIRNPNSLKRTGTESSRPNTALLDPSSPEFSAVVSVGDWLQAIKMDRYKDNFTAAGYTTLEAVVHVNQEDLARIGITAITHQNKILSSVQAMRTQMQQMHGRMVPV

Series 1 — effect on: binding; method: competition with immobilised ligand; concentration: 1 µM; endpoint: remaining binding
Compound: [2H]c1c([2H])c([C@]2([2H])CCCN2C(=O)C(C)(C)Oc2ccc3cn[nH]c3c2)c([2H])c([2H])c1C([2H])([2H])[2H]
GAK (Homo sapiens, UniProt O14976): 93%
EPHA4 (Homo sapiens, UniProt P54764): 62%
MAP3K10 (Homo sapiens, UniProt Q02779): 67%
FYN (Homo sapiens, UniProt P06241): 66%
Cyclin-dependent kinase 4, with cyclin D3 (CDK4, Homo sapiens, UniProt P11802): 69%
CDKL5 (Homo sapiens, UniProt O76039): 98%
EPHB1 (Homo sapiens, UniProt P54762): 65%
MAPK3 (Homo sapiens, UniProt P27361): 75%

Other studies, line by line
CA9: Carbonic anhydrase 9 (CA9, Homo sapiens, UniProt Q16790)
NEK2: Serine/threonine-protein kinase Nek2 (NEK2, Homo sapiens, UniProt P51955)
UniProt P51955, sequence (whole entry, looked up): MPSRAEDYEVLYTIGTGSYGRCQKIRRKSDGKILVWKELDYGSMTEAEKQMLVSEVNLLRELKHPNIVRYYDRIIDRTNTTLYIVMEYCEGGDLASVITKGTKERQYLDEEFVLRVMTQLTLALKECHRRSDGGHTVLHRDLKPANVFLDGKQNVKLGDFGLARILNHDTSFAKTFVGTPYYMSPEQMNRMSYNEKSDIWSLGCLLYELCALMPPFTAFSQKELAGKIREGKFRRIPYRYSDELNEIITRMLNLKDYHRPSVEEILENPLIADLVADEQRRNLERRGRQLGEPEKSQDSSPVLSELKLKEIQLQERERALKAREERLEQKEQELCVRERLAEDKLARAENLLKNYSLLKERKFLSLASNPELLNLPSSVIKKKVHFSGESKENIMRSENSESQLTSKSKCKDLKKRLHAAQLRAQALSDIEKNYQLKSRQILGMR
Cc1cc(C(=O)COC(=O)c2ccc(Cl)c(S(N)(=O)=O)c2)c(C)n1Cc1cccs1
pIC50 (CA9; enzyme activity, inhibitor): 6.36

C=CC(=O)N1CCC(COCC(=O)N2CCN(c3nc(-c4cnc(N)nc4C(F)F)nc(N4CCOC[C@@H]4C)n3)CC2)CC1
remaining binding (NEK2; binding, competition with immobilised ligand; 1 µM): 94%

C1=C/COCc2cc(ccc2OCCN2CCCC2)Nc2nccc(n2)-c2cccc(c2)COC/1
remaining binding (PIK3CA (Homo sapiens, UniProt P42336, E545K); binding; 0.1 µM): 56%

COc1cc(-c2cncc3c2CN(C)Cc2cc(N4CCNCC4)ccc2-3)cc(OC)c1OC
remaining activity (Cyclin-dependent kinase 16, with cyclin Y (CDK16, Homo sapiens, UniProt Q00536); enzyme activity, inhibitor; 1 µM): 110%

CC(OC(=O)CCC(=O)c1ccc(N)cc1)C(=O)Nc1ccc(S(N)(=O)=O)cc1 (stereo not shown)
pIC50 (CA9; enzyme activity, inhibitor): 7.82

Cc1cc([C@@H](C)Nc2ccccc2C(=O)O)c2nc(N3CCC(F)(F)CC3)c(C#N)c(=O)n2c1
remaining binding (MAPK3 (Homo sapiens, UniProt P27361); binding, competition with immobilised ligand; 10 µM): 100%

CNc1ncc2c(/C=C/C(=O)N3CCC(OC)CC3)nn(Cc3cccc(C(F)(F)F)c3)c2n1
remaining activity (NEK2; enzyme activity, inhibitor, radiometric; 1 µM): 98%

CCCCC(=O)Nc1ccc(-c2ccc3ncn(CCC)c(=O)c3c2)cn1
remaining binding (PIK3CA (Homo sapiens, UniProt P42336); binding, competition with immobilised ligand; 0.5 µM): 100%

A few entries again (series 1):
CDKL5 (Homo sapiens, UniProt O76039): 98%
